Experimental data pooled from the literature.
Lines come from different studies, so protocols differ. “And” joins repeats or separate records; there may be more than shown. ± marks the error that the study gave.

Compound = C[C@@H]1O[C@@H](O[C@H]2C[C@@H](O)[C@]3(CO)[C@H]4[C@H](O)C[C@]5(C)[C@@H](C6=CC(=O)OC6)CC[C@]5(O)[C@@H]4CC[C@]3(O)C2)[C@H](O)[C@H](O)[C@H]1O; tested on = iPSC-derived cardiomyocytes; test = concentration-response fit; setting = concentration not given; how to read = relative to: vehicle; quantity = fitted bottom MyBP-C level; value = 21.3%
Compound = O=C1N(Cc2ccccc2Cl)c2ccccc2C12NN=C(c1ccccc1)S2 (stereo not shown); tested on = MDA-MB-468; test = gene expression array, measured: KCTD3 mRNA; setting = 10 µM, 12 h; how to read = relative to: untreated, down; quantity = fold change; value = 1.51
Compound = Nc1ncnc2c1ncn2[C@@H]1O[C@@H]2COP(=O)(O)O[C@H]3[C@@H](O)[C@H](n4cnc5c(=O)[nH]cnc54)O[C@@H]3COP(=O)(O)O[C@H]2[C@H]1O; tested on = HFF-1; test = RNA sequencing, measured: Reactome Nicotinate metabolism; setting = upregulated pathways; how to read = relative to: mock; quantity = fold enrichment; value = 11
Compound = CCN(CC)c1ccc(C=NNC(=O)CSc2nc3ccccc3c(=O)n2Cc2ccc(S(N)(=O)=O)cc2)c(O)c1; tested on = SR; test = NCI five-dose screen; quantity = CC50; value = > 100 µM
Compound = CO[C@H]1/C=C\C=C(/C)C(=O)NC2=CC(=O)C(NCCN(C)C)=C(C[C@@H](C)C[C@H](OC)[C@H](O)[C@@H](C)/C=C(\C)[C@@H]1OC(N)=O)C2=O; tested on = iPSC-derived cardiomyocytes; test = concentration-response fit; setting = concentration not given; how to read = relative to: vehicle; quantity = fitted bottom MyBP-C level; value = 16%
Compound = Oc1cc(Cl)ccc1Oc1ccc(Cl)cc1Cl; tested on = HepG2; test = extracellular flux, measured: oxygen consumption rate; setting = 6 h, distribution mode 1; quantity = point of departure; value = 1.29 µM
Compound = CN1CCc2cc3c(cc2[C@H]1[C@@H]1OC(=O)c2c1ccc1c2OCO1)OCO3; tested on = glutamatergic hiPSC-derived neurons; test = multi-electrode array; setting = 2 h, highest concentration tested; how to read = relative to: vehicle; quantity = mean firing rate; value = 1.2 fold
Compound = COc1ccc([C@H]2c3[nH]c4ccc(Cl)cc4c3CCN2C(=O)Oc2ccc(Cl)cc2)cc1; tested on = human dermal fibroblasts with PBMC; test = cytokine secretion, measured: sIL-6; setting = 0.1 µM, 48 h; quantity = inhibition; value = 96%
Compound = CN(C)CC[C@@H](c1ccc(Cl)cc1)c1ccccn1; tested on = Plasmodium falciparum; test system = Dd2; quantity = IC50; value = 6.31 µM
Compound = CC[C@H](C)[C@@H]([C@@H](CC(=O)N1CCC[C@H]1[C@H](OC)[C@@H](C)C(=O)N[C@@H](Cc1ccccc1)C(=O)O)OC)N(C)C(=O)[C@@H](NC(=O)[C@H](C(C)C)N(C)C(=O)CCSSC[C@H](NC(=O)[C@@H](NC(=O)CNC(=O)[C@H](CCC(=O)O)NC(=O)[C@H](CC(=O)O)NC(=O)[C@H](C)NC(=O)[C@H](CC(=O)O)NC(=O)[C@@H](NC(=O)[C@H](CC(C)C)NC(=O)[C@H](CC(C)C)NC(=O)[C@H](C)NC(=O)[C@H](CC(C)C)NC(=O)[C@H](CC(=O)O)NC(=O)[C@H](CC(C)C)NC(=O)[C@H](CC(C)C)NC(=O)[C@H](CC(C)C)NC(=O)[C@H](CC(C)C)NC(=O)[C@@H]1CCCN1C(=O)[C@@H](NC(=O)[C@@H](NC(=O)[C@H](Cc1ccccc1)NC(=O)[C@H](CC(C)C)NC(=O)[C@H](Cc1c[nH]c2ccccc12)NC(=O)[C@H](C)NC(=O)[C@H](CC(=O)O)NC(=O)[C@H](Cc1ccc(O)cc1)NC(=O)[C@H](CCC(N)=O)NC(=O)[C@H](C)NC(=O)[C@H](Cc1c[nH]c2ccccc12)NC(=O)[C@H](Cc1ccc(O)cc1)NC(=O)[C@@H](NC(=O)[C@@H]1CCCN1C(=O)[C@H](CC(N)=O)NC(=O)[C@H](CCC(N)=O)NC(=O)[C@H](CCC(=O)O)NC(=O)[C@H](C)NC(=O)[C@H](C)N)[C@@H](C)CC)[C@@H](C)O)[C@@H](C)O)C(C)C)[C@@H](C)O)C(=O)NCC(N)=O)C(C)C; tested on = HeLa; test = cell growth, MTT; setting = 2 h; how to read = relative to: IC50 pH 7.4 over IC50 pH 5.0; quantity = selectivity ratio; value = 16.4 fold
Compound = Cc1c(O)c(O)cc2c1CC=C1[C@@]2(C)CC[C@@]2(C)[C@@H]3C[C@](C)(C(=O)O)CC[C@]3(C)CC[C@]12C; tested on = iPSC-derived cardiomyocytes; test = concentration-response fit; how to read = relative to: vehicle; quantity = fitted bottom MyBP-C/MYH ratio; value = 0%
Compound = CC(c1ccccc1)(c1ccc(O)cc1)c1ccc(O)cc1; tested on = HepG2 spheroids; test = Hoechst flow cytometry; setting = 10 µM, 96 h; quantity = S phase cells; value = 11 ± 0.61%
Compound = COc1c(CCC[P+](c2ccccc2)(c2ccccc2)c2ccccc2)cc2c(c1OC)OCO2.[I-]; tested on = SK-OV-3; test = SRB; quantity = LC50; value = > -4 log M
Compound = CN1CCN(C2(CNC3CCN(c4cccc(-c5cc6cc(F)ccc6[nH]5)c4)CC3)CCC2)CC1; tested on = A498; quantity = CC50; value = 6.86 µM
Compound = Cc1cnc2ccc3c(nc(N)n3C)c2n1; tested on = BALB/c 3T3; test = colony formation; setting = 1 µM; quantity = plating efficiency; value = 46%
Compound = Cn1cc2cc(C(F)(F)c3nnc4ccc(-c5cnn(C6CC6)c5)nn34)c(F)cc2n1; tested on = MKN-45; test = PI flow cytometry; setting = 2 nM, 24 h; quantity = cells in G1 phase; value = 43.6% and 43.7% and 42.7%
Compound = C[C@@]1(C(=O)O)CC[C@]2(C)CC[C@]3(C)C4=CC(=O)c5c(cc(O)c(O)c5C=O)[C@]4(C)CC[C@@]3(C)[C@@H]2C1; tested on = BT-12; test = cell viability, MTT; setting = 10 µM, 72 h; quantity = inhibition; value = 92.5%
Compound = CCc1cccc(N(C)C(=N)Nc2cccc3ccccc23)c1; tested on = Plasmodium falciparum; test system = D10; quantity = IC50; value = 12.6 µM
Compound = Cc1nn(-c2nc3c(F)cc(F)cc3s2)c(O)c1C(c1ccc(C(F)(F)F)cc1)c1c(C)nn(-c2nc3c(F)cc(F)cc3s2)c1O; tested on = RAW-ISG; test = CCK-8; setting = 6.25 µM; quantity = viability; value = 109% and 101% and 105% and 112%
Compound = N.N.[Cl][Pt][Cl]; tested on = Vero; test = MTT; setting = 100 µM, 48 h; quantity = growth reduction; value = 12.1 ± 1.04%
Compound = O=C1NC(=O)N(CCc2ccc(F)cc2)C(=O)/C1=C/C=C/c1ccccc1; tested on = C127 LDR GFP reporter cells; test = silenced GFP reporter induction, activator, high-content imaging; setting = independent samples, two-run mean; quantity = maximum efficacy; value = 106%
Compound = Cn1cncc1C1=CN(c2ncnc3[nH]cnc23)CCS1; tested on = NCI-H226; setting = lung cancer; quantity = CC50; value = > 200 µM
Compound = COc1ccc2c(c1)[nH]c1c(C)nccc12; tested on = DU-145; test = bisulfite pyrosequencing, measured: RASSF1A promoter CpG site 1; setting = 10 µM, 16 h; quantity = DNA methylation; value = 43.9%
Compound = Nc1ncc(-c2nc(N3CCOCC3)nc(N3CCOCC3)n2)c(C(F)F)n1; tested on = A498; setting = 72 h; quantity = GI50; value = 0.041 µM
Compound = CC1=C(O)C(=O)C=C2C1=CC=C1[C@@]2(C)CC[C@@]2(C)[C@@H]3C[C@](C)(C(=O)O)CC[C@]3(C)CC[C@]12C; tested on = iPSC-derived cardiomyocytes; test = concentration-response fit; setting = concentration not given; how to read = relative to: vehicle; quantity = fitted bottom MyBP-C level; value = 0%
Compound = CC(C)N1CCC(NC2CCN(c3cccc(-c4cc5cc(F)ccc5[nH]4)c3)CC2)CC1; tested on = NCI-H226; quantity = GI50; value = 1.81 µM
Compound = Oc1ccc(C2(c3ccc(O)cc3)c3ccccc3-c3ccccc32)cc1; tested on = HepG2 spheroids; test = Hoechst flow cytometry; setting = 10 µM, 96 h; quantity = S phase cells; value = 13.3 ± 2.64%
Compound = COc1cc(CCC[P+](c2ccccc2)(c2ccccc2)c2ccccc2)c(OC)c2c1OCO2.[I-]; tested on = NCI60 panel; test = SRB; quantity = mean Log10TGI; value = -4.88 log M
Compound = COC(=O)/C(C)=C\C[C@@]12OC(C)(C)[C@@H]3C[C@@H](C=C4C(=O)c5c(O)c6c(c(CC=C(C)C)c5O[C@]431)O[C@](C)(CCC=C(C)C)C=C6)C2=O; tested on = iPSC-derived cardiomyocytes; test = concentration-response fit; setting = concentration not given; how to read = relative to: vehicle; quantity = fitted bottom MyBP-C level; value = 0%
Compound = COc1c(C)c2c(c(O)c1C/C=C(\C)CCC(=O)O)C(=O)OC2; tested on = SK-LMS-1; test = cell proliferation; test system = uterus cancer; quantity = IC50; value = 0.708 µM
Compound = CCC1=N[C@H]2C[C@@]3(C(=O)N(OC)c4ccccc43)[C@H]3C[C@@H]1[C@@H]2CO3; tested on = Vero; test = CCK-8; setting = up to 100 µM, 24 h; quantity = viability; value = no effect
Compound = Cn1nccc1Nc1nccc(-c2cc3c(s2)C(C)(C)N(CCN2CCOCC2)C3=O)n1; tested on = HCT116; test = IncuCyte; setting = concentration not given, 24 (unit not given); quantity = PI-positive cells; value = 6.83 count and 7.92 count and 8.92 count
Compound = Cc1cc(C(C)(C)c2ccc(O)c(C)c2)ccc1O; tested on = HepG2 spheroids; test = Hoechst flow cytometry; setting = 0.01 µM, 96 h; quantity = G2 phase cells; value = 15.1 ± 4.8%
Compound = C[C@]12CC[C@H](O)C[C@H]1CC[C@@H]1[C@@H]2CC[C@]2(C)[C@@H](c3ccc(=O)oc3)CC[C@]12O; tested on = MCF7; test = RT-qPCR, measured: PGR; setting = 50 nM, 48 h, without estradiol, unit not given; how to read = relative to: untreated; quantity = mRNA level; value = 0.229 and 0.14 and 0.25
Compound = C/C=C(/C)C(=O)O[C@H]1C(C)=C2[C@H]([C@@H]1OC(=O)CCCCCCC)[C@@](C)(OC(C)=O)C[C@H](OC(=O)CCC)[C@@]1(O)[C@H]2OC(=O)[C@@]1(C)O; tested on = HEK-293T; test = RNA-seq GSEA, measured: Hallmark hypoxia; setting = 500 nM, 6 h; how to read = direction not given; quantity = normalized enrichment score; value = 2.01
Compound = CN1CC[C@@]2(C)c3cc(OC(=O)Nc4ccccc4)ccc3N(C)[C@@H]12; tested on = human PBMC; test = ELISA, measured: IL-1β; setting = 0.1 to 10 µM, together with: PHA 20 µg/mL; quantity = inhibition; value = ~50%
Compound = O=S(=O)(c1ccc(O)cc1)c1ccc(O)cc1; tested on = HepG2 spheroids; test = Hoechst flow cytometry; setting = 0.01 µM, 96 h; quantity = S phase cells; value = 11.8 ± 3.27%

Some of these lines once more:
Compound = Cn1cc2cc(C(F)(F)c3nnc4ccc(-c5cnn(C6CC6)c5)nn34)c(F)cc2n1; tested on = MKN-45; test = PI flow cytometry; setting = 2 nM, 24 h; quantity = cells in G1 phase; value = 43.6% and 43.7% and 42.7%
Compound = COC(=O)/C(C)=C\C[C@@]12OC(C)(C)[C@@H]3C[C@@H](C=C4C(=O)c5c(O)c6c(c(CC=C(C)C)c5O[C@]431)O[C@](C)(CCC=C(C)C)C=C6)C2=O; tested on = iPSC-derived cardiomyocytes; test = concentration-response fit; setting = concentration not given; how to read = relative to: vehicle; quantity = fitted bottom MyBP-C level; value = 0%
